Experimental data gathered from unrelated publications.
Each numbered part is a random draw from the data of one study; scales do not carry over between parts. Positions count from the first letter of the parent shown.

Series 1 — method: DHFR PCA, deep sequencing; medium: yeast; together with: (+)-ABA 200 µM; reference: wild-type fitted maximum; reading: higher = stronger binding
Target: ABI1, truncated, D143A, DHFR fusion (Arabidopsis thaliana)
Notes: methotrexate growth selection, single substitutions
Starting sequence: PYL1, truncated, DHFR fusion (Arabidopsis thaliana); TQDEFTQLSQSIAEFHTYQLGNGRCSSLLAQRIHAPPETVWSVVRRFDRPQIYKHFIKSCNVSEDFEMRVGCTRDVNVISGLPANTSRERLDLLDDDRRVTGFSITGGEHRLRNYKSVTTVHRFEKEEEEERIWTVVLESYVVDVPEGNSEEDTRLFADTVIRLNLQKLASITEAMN; partner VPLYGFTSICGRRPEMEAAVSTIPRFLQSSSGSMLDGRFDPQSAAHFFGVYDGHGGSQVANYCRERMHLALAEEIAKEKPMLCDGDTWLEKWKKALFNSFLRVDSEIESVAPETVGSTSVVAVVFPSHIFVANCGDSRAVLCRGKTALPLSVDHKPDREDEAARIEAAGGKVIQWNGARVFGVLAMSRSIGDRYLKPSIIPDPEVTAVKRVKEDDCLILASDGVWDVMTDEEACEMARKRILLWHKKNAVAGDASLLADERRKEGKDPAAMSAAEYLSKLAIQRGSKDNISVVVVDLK
Variant	relative binding score [%]
D96C	69
T86P	4.89
E129P	107
G108S	43
R45P	-12.4
N114S	73.1
G102F	-5.55
K168E	78.5
T101C	104

Series 2 — target: CCND3, cyclin fold, Cln2 fusion (human); method: yeast growth competition, sequencing; medium: yeast; notes: weak parent motif; reference: not given; reading: higher = stronger binding
Starting sequence: RBL1 docking peptide (human); GSAKRRLFGEDPP
Variant	normalised enrichment score
GSAKRRLFSEDPP [G9S]	0.166
GSAKRREFGEDPP [L7E]	0.0892
GGAKRRLFGEDPP [S2G]	0.067
GSAKRRLFGEDTP [P12T]	0.205
GSATRRLFGEDPP [K4T]	0.156
GSAKARAFGEDPP [R5A L7A]	0.0133
GSAKRRLFHEDPP [G9H]	0.0993
RSAKRRLFGEDPP [G1R]	0.19
GSAKRRLFGNDPP [E10N]	0.145
GRAKRRLFGEDPP [S2R]	0.127
GSALRRLFGEDPP [K4L]	0.0634

Series 3 — method: RNA Bind-n-Seq; molecule type: RNA; medium: in vitro; concentration: 200 nM; notes: whole 134-nt RNA, ends assumed; together with: 150 mM LiCl; reference: input library; reading: higher = stronger binding; each molecule: 7-deaza-guanosine replaces G
Target: Fragile X messenger ribonucleoprotein 1, C-terminal low-complexity region (Fmr1, Mus musculus, UniProt P35922)
All sequences stand within: GGGAGUUCUACAGUCCGACGAUC … UGGAAUUCUCGGGUGUCAAGG
Sequence	log2 enrichment
CAAGUCCUGUGCUACACAUCGUAUGUACCGAAUCGGGUUUUUGGGAGGGUUUGGGAAAGUAUUAUGUUACGCCGUUCGGAUCUGCACUUC	-0.613
UUUAAGAGCAGCCAGGGAGAUAGUGGCGUUGACUUGAGUGCCGAGUCUCGGGAGUCGUCUGCGACCUCCUCGCAGCGCAGCUCCCCAUAU	1.41
AGUCCUGUGCUACACAUCGUAUGUACCGAAUCGGGAAAAAAAGGGAAAAAGGGAGGGAAAGUAUUAUGUUACGCCGUUCGGAUCUGCACU	-0.773
AGUCCUGUGCUACACAUCGUAUGUACCGAAUCGGGAAAAAGGGUUUGGGUUUUUGGGAAAGUAUUAUGUUACGCCGUUCGGAUCUGCACU	-2.35
GUCCUGUGCUACACAUCGUAUGUACCGAAUCGGGGAAAGGGGAAAGGGGUUUUUGGGGAAAGUAUUAUGUUACGCCGUUCGGAUCUGCAC	0.379
CUCAAGUCCUGUGCUACACAUCGUAUGUACCGAAUCGGGGAAGGAAGGGGAAGGAAAGUAUUAUGUUACGCCGUUCGGAUCUGCACUUCC	-0.862
UCCUCAAGUCCUGUGCUACACAUCGUAUGUACCGAAUCGGCGGGCGGGGCGGAAAGUAUUAUGUUACGCCGUUCGGAUCUGCACUUCCAG	0.926

Mixed results
Substance	target	test	system	conditions	how to read	quantity	value
PhoQ, residues 284 288 289 292 302 303 ASTSDA	PhoP, residues 12 14 15 18 19 NMSSL (Escherichia coli, UniProt P23836)	Sort-seq, measured: YFP reporter	E. coli	PhoQ-PhoP variant library, together with: 10 µM Mg2+	reference: high Mg2+ state, higher = stronger signaling	fold induction	15.6

Excerpt of the above (series 3):
Sequence	log2 enrichment
AGUCCUGUGCUACACAUCGUAUGUACCGAAUCGGGAAAAAAAGGGAAAAAGGGAGGGAAAGUAUUAUGUUACGCCGUUCGGAUCUGCACU	-0.773
AGUCCUGUGCUACACAUCGUAUGUACCGAAUCGGGAAAAAGGGUUUGGGUUUUUGGGAAAGUAUUAUGUUACGCCGUUCGGAUCUGCACU	-2.35
GUCCUGUGCUACACAUCGUAUGUACCGAAUCGGGGAAAGGGGAAAGGGGUUUUUGGGGAAAGUAUUAUGUUACGCCGUUCGGAUCUGCAC	0.379
UUUAAGAGCAGCCAGGGAGAUAGUGGCGUUGACUUGAGUGCCGAGUCUCGGGAGUCGUCUGCGACCUCCUCGCAGCGCAGCUCCCCAUAU	1.41
